Measured values gathered from unrelated publications.
Lines come from different studies, so protocols differ.
Read-out: cell growth or viability

Compound = NCCC(=O)Nc1ccccc1/N=c1\cc(-c2ccc3c(c2)OCCO3)oc2cc(F)ccc12; cell line = NCI-H1975; test = CCK-8; setting = 1 µM; endpoint = inhibition; value = -4.29%
Compound = CN(C)CCNC(=O)c1ccc(-c2nc3ccc4[nH]ncc4c3c3c2CCCCC3)nc1; cell line = K562; test = resazurin; setting = 72 h; endpoint = GI50; value = 8.1 µM
Compound = Cc1cc(C)n(C(=S)[S][Au][PH](CCCCCC[PH]([Au][S]C(=S)n2nc(C)cc2C)(c2ccccc2)c2ccccc2)(c2ccccc2)c2ccccc2)n1; cell line = COLO 205; endpoint = GI50; value = 0.105 µM
Compound = CNCCC(=O)Nc1ccccc1/N=c1\cc(-c2ccc3nc(N)oc3c2)oc2ccccc12; cell line = MOLM-13; test = CCK-8; setting = 1 µM; endpoint = inhibition; value = 26.4%
Compound = CC(=NNC(=O)c1ccccc1Br)c1ccc(Nc2nnc(-c3ccc(Cl)cc3)c3ccccc23)cc1; cell line = HepG2; test = MTT; setting = 1.25 µM; endpoint = cell death; value = 88.1%
Compound = COc1ccc(NC(=O)c2c(Nc3ccccc3)sc(C#N)c2NC(=O)CNc2ccccc2[N+](=O)[O-])cc1; cell line = HCT-116; test = SRB; setting = 1 µM, 48 h; endpoint = viability; value = 81.5%
Compound = COCC(C)Nc1ccnc(Nc2cccc(-c3cccnc3)c2)n1 (stereo not drawn); cell line = BJ; test = ATP luminescence; setting = 72 h; endpoint = EC50; value = > 23 µM
Compound = NCCC(=O)Nc1ccccc1/N=c1\cc(-c2ccc3nc(N)oc3c2)oc2cc(O)ccc12; cell line = NCI-H1975; test = CCK-8; setting = 1 µM; endpoint = inhibition; value = 6.23%
Compound = COc1ccc(NC(=O)c2c(Nc3ccccc3)sc(C(=O)NN=Cc3cc(OC)c(OC)c(OC)c3)c2NC(C)=O)cc1; cell line = HCT-116; test = SRB; setting = 10 µM, 48 h; endpoint = viability; value = 56.3%
Compound = O=C(Nc1ccccc1)Nc1ccc(Oc2nnc(-c3ccc(Cl)cc3)c3ccccc23)cc1; cell line = HepG2; test = MTT; setting = 10 µM; endpoint = cell death; value = 95.2%
Compound = COc1ccc(NC(=O)c2c(Nc3ccccc3)sc(C#N)c2NC(=O)CNc2ccc(Br)cc2)cc1; cell line = HCT-116; test = SRB; setting = 10 µM, 48 h; endpoint = viability; value = 55.3%
Compound = Cc1n[nH]c2ccc3nc(-c4ccc(C(=O)NCCN(C)C)cc4)c4c(c3c12)CCCC4; cell line = U-937; setting = 72 h; endpoint = GI50; value = 0.86 µM
Compound = CCCC(C)C(=O)Nc1ccc(-c2ccc3ncn(CCC)c(=O)c3c2)cn1 (stereo not drawn); cell line = HCC827; test = CCK-8; setting = 72 h; endpoint = IC50; value = > 10 µM
Compound = COc1ccc(NC(=O)c2c(Nc3ccccc3)sc(C(=O)NN=Cc3ccc(Br)cc3)c2NC(C)=O)cc1; cell line = HCT-116; test = SRB; setting = 100 µM, 48 h; endpoint = viability; value = 47.3%
Compound = CCCCC(=O)Nc1ccc(-c2ccc3ncn(CCC)c(=O)c3c2)cc1; cell line = HCC827; test = CCK-8; setting = 72 h; endpoint = IC50; value = 1.8 µM
Compound = CC(C)Nc1ccnc(Nc2ccc(-c3ccccc3)cc2)n1; cell line = BJ; test = ATP luminescence; setting = 72 h; endpoint = EC50; value = > 26 µM
Compound = CC(=NNC(=O)c1ccccc1Cl)c1ccc(Nc2nnc(-c3ccc(Cl)cc3)c3ccccc23)cc1; cell line = HepG2; test = MTT; setting = 2.5 µM; endpoint = cell death; value = 95.2%
Compound = c1ccc(-c2ccccc2Nc2nccc(NC3CCCCC3)n2)cc1; cell line = BJ; test = ATP luminescence; setting = 72 h; endpoint = EC50; value = > 7 µM
Compound = COc1ccc2/c(=N/c3ccccc3NC(=O)CN)cc(-c3ccc4c(c3)OCCO4)oc2c1; cell line = MOLM-13; test = CCK-8; setting = 1 µM; endpoint = inhibition; value = -0.02%
Compound = CNCc1cc(OC)cc2c1CN(c1cccc(-c3nncn3C(C)CC(F)(F)F)n1)C2=O (stereo not drawn); cell line = HCC827; test = CCK-8; endpoint = IC50; value = 1.23 µM
Compound = CN(C)CCNC(=O)c1ccc(-c2nc3ccc4[nH]ncc4c3c3c2CC3)cc1; cell line = K562; test = resazurin; setting = 72 h; endpoint = GI50; value = 6.6 µM
Compound = COc1ccc(Cn2cnc3ccc(-c4ccc(NC(=O)c5ccccc5)nc4)cc3c2=O)cc1; cell line = NCI-H1975; test = CCK-8; setting = 72 h; endpoint = IC50; value = > 10 µM
Compound = S=C(Nc1ccccc1)Nc1ccc(Oc2nnc(-c3ccc(Cl)cc3)c3ccccc23)cc1; cell line = HepG2; test = MTT; setting = 0.625 µM; endpoint = cell death; value = 3.16%
Compound = CNC(=O)c1cc(Oc2ccc(NC(=O)Nc3ccc(Cl)c(C(F)(F)F)c3)cc2)ccn1; cell line = HCT-116; test = SRB; setting = 100 µM, 48 h; endpoint = viability; value = 34.2%
Compound = CCCNc1ccnc(Nc2cccc(-c3cccnc3)c2)n1; cell line = BJ; test = ATP luminescence; setting = 72 h; endpoint = EC50; value = > 19 µM
Compound = CCCCC(=O)Nc1cc(C)c(-c2ccc3ncn(CCC)c(=O)c3c2)cn1; cell line = NCI-H1975; test = CCK-8; setting = 72 h; endpoint = IC50; value = 6.79 µM
Compound = C[C@H](N)C(=O)Nc1ccccc1/N=c1\cc(-c2ccc3c(c2)OCCO3)oc2c(N)cccc12; cell line = NCI-H1975; test = CCK-8; setting = 1 µM; endpoint = inhibition; value = -4.76%
Compound = COc1ccc(NC(=O)c2c(Nc3ccccc3)sc(C(=O)NN=Cc3ccc(C)cc3)c2NC(C)=O)cc1; cell line = HCT-116; test = SRB; setting = 1 nM, 48 h; endpoint = viability; value = 100%
Compound = Cc1n[nH]c2ccc3nc(-c4ccc(C(=O)NCCN(C)C)cn4)c4c(c3c12)CCCCC4; cell line = K562; test = resazurin; setting = 72 h; endpoint = GI50; value = 6.7 µM
Compound = CC[C@H](C)Nc1ccnc(Nc2cccc(-c3cccnc3)c2)n1; cell line = BJ; test = ATP luminescence; setting = 72 h; endpoint = EC50; value = > 6 µM
Compound = CCCCC(=O)Nc1ccc(-c2ccc3ncn(CCC)c(=O)c3c2)c(F)n1; cell line = NCI-H1975; test = CCK-8; setting = 72 h; endpoint = IC50; value = 0.26 µM
Compound = O=C(Nc1ccc(Oc2nnc(-c3ccc(Cl)cc3)c3ccccc23)cc1)c1ccccc1; cell line = MCF7; test = MTT; setting = 5 µM; endpoint = cell death; value = 93.1%
Compound = COc1ccc(NC(=O)c2c(Nc3ccccc3)sc(C#N)c2NC(=O)CNc2ccc(Cl)cc2)cc1; cell line = HCT-116; test = SRB; setting = 1 nM, 48 h; endpoint = viability; value = 100%
Compound = CCCCCC(=O)Nc1ccc(-c2ccc3ncn(Cc4ccccc4)c(=O)c3c2)cn1; cell line = NCI-H1975; test = CCK-8; setting = 72 h; endpoint = IC50; value = > 10 µM
Compound = O=C(NCCCN1CCCCC1)c1ccc(-c2nc3ccc4[nH]ncc4c3c3c2CCCC3)cc1; cell line = K562; test = resazurin; setting = 72 h; endpoint = GI50; value = > 10 µM
Compound = COc1ccc(NC(=O)c2c(Nc3ccccc3)sc(C#N)c2NC(=O)CNc2ccc([N+](=O)[O-])cc2)cc1; cell line = HCT-116; test = SRB; setting = 100 µM, 48 h; endpoint = viability; value = 41.3%
Compound = O=C(C=Cc1ccccc1)Nc1ccc(Oc2nnc(-c3ccc(Cl)cc3)c3ccccc23)cc1; cell line = HepG2; test = MTT; setting = 0.625 µM; endpoint = cell death; value = 21.5%
Compound = NC(=O)C1CCCN1C(=O)Nc1ccccc1/N=c1\cc(-c2ccc3c(c2)OCCO3)oc2cc(F)ccc12 (stereo not drawn); cell line = NCI-H1975; test = CCK-8; setting = 1 µM; endpoint = inhibition; value = 3.15%
Compound = CC(=NNC(N)=S)c1ccc(Nc2nnc(-c3ccc(Cl)cc3)c3ccccc23)cc1; cell line = HepG2; test = MTT; setting = 10 µM; endpoint = cell death; value = 92.7%
Compound = C#C[C@@]1(O)[C@@H](CO)O[C@@H](n2cc(Cl)c3c(N)ncnc32)[C@@H]1O; cell line = Malme-3M; test = SRB; endpoint = GI50; value = 0.223 µM
Compound = CCNc1nc2ccc(-c3c/c(=N\c4ccccc4NC(=O)CCN)c4ccccc4o3)cc2o1; cell line = NCI-H1975; test = CCK-8; setting = 1 µM; endpoint = inhibition; value = 23%
Compound = CCCCC(=O)Nc1ccc(-c2ccc3ncn(CC)c(=O)c3c2)cn1; cell line = HCC827; test = CCK-8; setting = 72 h; endpoint = IC50; value = 0.16 µM
Compound = c1cncc(-c2cccc(Nc3nccc(NC4CCCC4)n3)c2)c1; cell line = BJ; test = ATP luminescence; setting = 72 h; endpoint = EC50; value = 11 µM
Compound = CCC(=CCc1c(O)cc2c(c1O)C(=O)C[C@@H](c1ccc(O)cc1)O2)CC; cell line = HeLa; test = MTT; setting = 50 µM, 48 h; endpoint = inhibition; value = 89.1%
Compound = Fc1ccc(Nc2nccc(NC3CCCCC3)n2)cc1; cell line = BJ; test = ATP luminescence; setting = 72 h; endpoint = EC50; value = > 6 µM
Compound = Nc1nc2ccc(-c3c/c(=N\c4ccccc4NC(=O)C4CCNC4)c4ccccc4o3)cc2o1 (stereo not drawn); cell line = NCI-H1975; test = CCK-8; setting = 1 µM; endpoint = inhibition; value = 40.1%
Compound = CC(=NNC(=O)c1ccc(N)cc1)c1ccc(Nc2nnc(-c3ccc(Cl)cc3)c3ccccc23)cc1; cell line = HepG2; test = MTT; setting = 5 µM; endpoint = cell death; value = 84.2%
Compound = CN(c1cccc(-c2cccnc2)c1)c1nccc(N(C)C2CCCCC2)n1; cell line = BJ; test = ATP luminescence; setting = 72 h; endpoint = EC50; value = > 5 µM

A few entries again:
Compound = CC(=NNC(=O)c1ccc(N)cc1)c1ccc(Nc2nnc(-c3ccc(Cl)cc3)c3ccccc23)cc1; cell line = HepG2; test = MTT; setting = 5 µM; endpoint = cell death; value = 84.2%
Compound = COCC(C)Nc1ccnc(Nc2cccc(-c3cccnc3)c2)n1 (stereo not drawn); cell line = BJ; test = ATP luminescence; setting = 72 h; endpoint = EC50; value = > 23 µM
Compound = O=C(C=Cc1ccccc1)Nc1ccc(Oc2nnc(-c3ccc(Cl)cc3)c3ccccc23)cc1; cell line = HepG2; test = MTT; setting = 0.625 µM; endpoint = cell death; value = 21.5%
